Measured values pooled from the literature.
Each numbered part is a random draw from the data of one study; scales do not carry over between parts. Positions count from the first letter of the parent shown.

Sample 1
Target: CCNB3, cyclin fold, Cln2 fusion (human)
Method: yeast growth competition, sequencing
Medium: yeast
Notes: weak parent motif
Reference: not given
Direction: higher = stronger binding
Parent: MASTL docking peptide (human); PMIAKNLMCELDE
Substitution	normalised enrichment score
L11N	-0.208
L7W	0.0143
M8S	0.0022
N6I	0.00403
L7C	0.143
E10F	-0.117
D12M	0.217
M2L	0.00634

Sample 2
Target: Krueppel-like factor 3, full length (KLF3, Homo sapiens, UniProt P57682, residues 1-345)
Sequence of UniProt P57682 (whole entry, looked up): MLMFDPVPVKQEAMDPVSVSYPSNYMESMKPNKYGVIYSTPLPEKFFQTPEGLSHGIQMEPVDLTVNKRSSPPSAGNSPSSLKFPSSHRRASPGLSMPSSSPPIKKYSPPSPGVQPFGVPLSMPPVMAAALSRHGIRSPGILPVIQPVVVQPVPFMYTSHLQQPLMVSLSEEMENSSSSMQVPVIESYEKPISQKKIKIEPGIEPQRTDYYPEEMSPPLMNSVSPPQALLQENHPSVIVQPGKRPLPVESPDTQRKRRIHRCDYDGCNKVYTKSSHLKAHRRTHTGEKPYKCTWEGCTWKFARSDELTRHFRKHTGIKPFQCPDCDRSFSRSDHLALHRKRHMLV
Method: protein-binding microarray
Form: hairpin DNA
Medium: in vitro
Concentration: not given
Notes: whole hairpin DNA, median over replicate spots
Reference: not given
Direction: higher = stronger binding
Shared flanks, not repeated: GAGGCCG … CGGCCTCACACTC
Oligonucleotide	median fluorescence [a.u.]
CGCGCGCCCAGCCTCCTGGCTGGGCGCGCG (5mC at 8)	9170
ATCACGCCCAGCCTCCTGGCTGGGCGTGAT	15000
ACAACGCCCAGCCTCCTGGCTGGGCGTTGT	8040
ACCGCGCCCAGCCTCCTGGCTGGGCGCGGT (5mC at 10 12 32 34)	8510
TCCGCGCCCAGCCTCCTGGCTGGGCGCGGA	8440
ACGACGCCCAGCCTCCTGGCTGGGCGTCGT (5mC at 9 35)	8030
ACCACGCCGAGCCTCCTGGCTCGGCGTGGT (5mC at 15)	9670
ACCCGGCCCAGCCTCCTGGCTGGGCCGGGT (5mC at 11)	8160

Sample 3
Target: Probable WRKY transcription factor 33, N-terminal DNA-binding domain (WRKY33, Arabidopsis thaliana, UniProt Q8S8P5, residues 169-264)
Method: DNA-protein interaction ELISA
Form: double-stranded DNA, one strand shown
Medium: in vitro, bacterial lysate
Concentration: not given
Notes: whole dsDNA probe, crude lysate protein
Reference: highest signal in screen
Direction: higher = stronger binding
Construct (chain): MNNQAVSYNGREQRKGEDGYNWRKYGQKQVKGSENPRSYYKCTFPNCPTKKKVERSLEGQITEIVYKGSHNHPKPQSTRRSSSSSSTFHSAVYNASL
Oligonucleotide	relative absorbance
AAAAAATTACTATTACACACTTGGGGAAAA	23.2 % of maximum
AAAAAACACTCACACCTATACGGCTCAAAA	20.2 % of maximum
AAAAAATCGTAAATGCCCATAGCCGTAAAA	21.7 % of maximum
AAAAAATTTTGTGGTGTTTCGCCACCAAAA	20.6 % of maximum
AAAAAAACTATAGTCTTTGTCATGATAAAA	16.2 % of maximum
AAAAAAGGGGTCCTTTTCCAATGTCTAAAA	21.5 % of maximum

Other studies, line by line
SMILES	cell line	method	concentration	notes	reference	endpoint	result
Cc1c(NC(=O)c2ccc(C(C)(C)C)cc2)cccc1-c1cn(C)c(=O)c(Nc2ccc(C(=O)N3CCOCC3)cc2)n1	sample D normal colon organoid	CellTiter-Glo	1 µM	mean of replicates	DMSO	viability	82.9%

Repeated from above (sample 1):
Substitution	normalised enrichment score
L7C	0.143
E10F	-0.117
